Measurements of several laboratories.
Each numbered part is a random draw from the data of one study; scales do not carry over between parts. Substitutions count along the parent as printed.

Sample 1
Target: RNA binding protein fox-1 homolog 2, RRM domain, GST-SBP tag (RBFOX2, Homo sapiens, UniProt O43251-10, residues 100-194)
Technique: RNA Bind-n-Seq
Molecule type: RNA
Medium: in vitro
Tested at: 365 nM
Notes: natural RNA segment, single round, ends assumed
Baseline: no-protein control
Direction: higher = stronger binding
Constant ends, left off below: GGGAGUUCUACAGUCCGACGAUC … UGGAAUUCUCGGGUGCCAA
Construct (chain): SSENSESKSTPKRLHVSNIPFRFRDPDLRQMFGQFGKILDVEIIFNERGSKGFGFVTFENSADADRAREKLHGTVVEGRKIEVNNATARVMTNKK
Strand | RBNS enrichment (R)
AGGUAAACAAAAGAAUUUGUAUUGCUUGAUAAAUAUUAGCUUGUAAAUUUAAAGUUUCUUUACUUCAAUUAACUUAAAGGACCAAUAAACCCAUAAAAGAUGCUUUCUUU | 0.555
AACCUAAUAAGUAACUGUGAGAUGUACAGAAAGGUGUUCUUACAUGAAGAAGGGUGUGAAGGCUGAACAAUCAUGGAUUUUUCUGAUCAAUUGUGCUUUAGGAAAUUAUU | 0.705
ACAGUGUAGGGUAAAGAACAGAAUUGGAACAGAACUAAGGCUGUUGCUUUCAUAGCAUCUCAGACUACUUGGAACUCCAAGGACUGCCUAACUAAAGUACUUUCACAAAC | 0.22
CUGAGCCCCCGGGGCCUCAAGGUAGGGAGCCGAAGAGGCUGCCAGGACUCUGCUGGGUUGAAAUUUGCCGGGGAGGACUCUUGUCUCCCCCUCAGGAGUAUUUUUGUUGA | 0.942
CUGCUCUGAAGGGAUCCCUCAGUUCACCGAUUGGCAAGCCAAGGUCAGUCCUUGCUGUUGAUGGAGCUGGGAGGAGGAGGGACCUAAGGACUCAGGACAGAGCAUCUCAC | 0.467
CCCUCCCAGUGUUUGCAGAGCUGAGAUUUUCCUAAUGACCUAAGAAGAUACUGACGUAGAACGGUAUUAGAAAAUGACACUUCAAAAAUGUUGGAUACCAAAGCACGGUA | 1.48
UAUUUUUAUAUUUUGCCAUUUUACAGUACUGUUUUGUUUUGAAUUCAUGCAUAUCAUUGAAAAUUUCUCGUUUUCAUUUUCUUAGAUGACUUCUUGUCUGAGACAGAAAA | 2.18
CGCAGUGGACUGUGUCCCUCGGUGCAGAAACUACCAGAUUUGAGGGACGAGGUCAAGGAGAUAUGAUAGGCCCGGAAGUUGCUGUGCCCCAUCAGCAGCUUGACGCGUGG | 1.29
ACAAGGAGAAGAAGUUUCUUGUUGCUUUACAACAGUGUGUGCUAAGUGCUGGACUUGGCCAUGGGUAGUCUGCAGCUCAAUUUAUAGAACAGUCCAAAGAGACUUUGCAA | 0.717

Sample 2
Target: Interferon regulatory factor 5, full length, phosphomimetic (IRF5, Homo sapiens, UniProt Q13568-2, residues 1-514, K96S/S451D/S453D/S456D/S462D)
Technique: protein-binding microarray
Molecule type: double-stranded DNA, one strand shown
Medium: in vitro
Tested at: 250 nM
Notes: 60-bp whole probe
Added: salmon DNA 0.4 mg/ml
Baseline: random background probes
Direction: higher = stronger binding
Constant ends, left off below: GCCTAGCAC … GTCTTGATTCGCTTGACGCTGCTG
Strand | log fluorescence [z-score]
GACGATATCAGGTTCGAGACGTGCTAG | 0.631
TGTACTTTCTATCTCTGTTTGTGCTAG | 5.57
TCATTTCTGTTTTTGCTACTGTGCTAG | 4.15
TCATTTTCATTTTTTTTACTGTGCTAG | 3.57
ACCCATTGAGATTTTCATTATGTGCTA | 0.878
TCAACCATCTAGTTCTGACTGTGCTAG | 0.0781

Sample 3
Target: CCNB3, cyclin fold, Cln2 fusion (human)
Technique: yeast growth competition, sequencing
Medium: yeast
Notes: weak parent motif
Baseline: not given
Direction: higher = stronger binding
Starting sequence: RB1 docking peptide (human); PKPLKKLRFDIEG
Change | normalised enrichment score
PKPLKWLRFDIEG [K6W] | 0.0344
PKPLKDLRFDIEG [K6D] | 0.293
PKPLKKGRFDIEG [L7G] | 0.36
PKVLKKLRFDIEG [P3V] | -0.511
PIPLKKLRFDIEG [K2I] | 0.716
PKPLKKLRMDIEG [F9M] | 0.0862

Further values, each from its own experiment
Molecule | target | assay | test system | setting | how to read | endpoint | result
PhoQ, residues 284 288 289 292 302 303 SVHLDV | PhoP, residues 12 14 15 18 19 STWGI (Escherichia coli, UniProt P23836) | Sort-seq, item: YFP reporter | E. coli | PhoQ-PhoP variant library, added: 10 µM Mg2+ | baseline: high Mg2+ state, higher = stronger signaling | fold induction | 3.53

For quick reference, copied from above (sample 3):
Change | normalised enrichment score
PKPLKKGRFDIEG [L7G] | 0.36
